Published values gathered from unrelated publications.
± marks the error that the study gave.
Sctr: Sctr (Rattus norvegicus, UniProt P23811)
Sequence of UniProt P23811 (whole entry, looked up): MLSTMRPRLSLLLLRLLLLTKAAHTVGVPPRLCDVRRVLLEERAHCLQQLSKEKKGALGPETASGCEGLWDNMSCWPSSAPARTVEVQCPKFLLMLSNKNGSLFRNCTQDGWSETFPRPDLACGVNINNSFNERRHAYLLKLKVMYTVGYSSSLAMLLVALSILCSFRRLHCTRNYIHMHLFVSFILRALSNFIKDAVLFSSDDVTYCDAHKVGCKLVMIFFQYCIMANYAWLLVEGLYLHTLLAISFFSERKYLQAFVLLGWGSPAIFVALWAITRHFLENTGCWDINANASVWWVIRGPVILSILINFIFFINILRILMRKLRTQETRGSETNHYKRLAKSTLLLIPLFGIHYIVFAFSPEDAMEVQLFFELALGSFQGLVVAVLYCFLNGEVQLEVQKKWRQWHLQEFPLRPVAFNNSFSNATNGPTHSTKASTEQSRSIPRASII
FFAR2: Free fatty acid receptor 2 (FFAR2, Homo sapiens, UniProt O15552)
Sequence of UniProt O15552 (whole entry, looked up): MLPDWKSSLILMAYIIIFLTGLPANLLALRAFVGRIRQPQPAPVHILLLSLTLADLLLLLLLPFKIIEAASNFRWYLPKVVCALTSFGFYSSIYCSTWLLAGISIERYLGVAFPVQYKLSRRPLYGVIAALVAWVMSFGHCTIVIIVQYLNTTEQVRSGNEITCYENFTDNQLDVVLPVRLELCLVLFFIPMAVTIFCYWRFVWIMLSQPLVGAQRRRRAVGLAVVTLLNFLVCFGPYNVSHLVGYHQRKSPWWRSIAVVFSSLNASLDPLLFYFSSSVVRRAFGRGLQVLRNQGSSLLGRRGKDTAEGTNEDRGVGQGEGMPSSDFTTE
GRPR: Gastrin-releasing peptide receptor (GRPR, Homo sapiens, UniProt P30550)
Sequence of UniProt P30550 (whole entry, looked up): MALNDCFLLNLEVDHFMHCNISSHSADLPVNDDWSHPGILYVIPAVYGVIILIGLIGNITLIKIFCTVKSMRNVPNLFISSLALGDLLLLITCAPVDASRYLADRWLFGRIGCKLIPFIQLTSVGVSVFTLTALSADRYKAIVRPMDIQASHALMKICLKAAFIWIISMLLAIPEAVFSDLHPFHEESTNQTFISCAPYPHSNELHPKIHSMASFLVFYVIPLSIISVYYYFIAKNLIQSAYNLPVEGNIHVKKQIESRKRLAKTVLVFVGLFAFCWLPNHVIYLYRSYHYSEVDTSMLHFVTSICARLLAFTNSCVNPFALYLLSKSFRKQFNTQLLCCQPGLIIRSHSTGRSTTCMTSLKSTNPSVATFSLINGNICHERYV
Sequence of UniProt P32241 (whole entry, looked up): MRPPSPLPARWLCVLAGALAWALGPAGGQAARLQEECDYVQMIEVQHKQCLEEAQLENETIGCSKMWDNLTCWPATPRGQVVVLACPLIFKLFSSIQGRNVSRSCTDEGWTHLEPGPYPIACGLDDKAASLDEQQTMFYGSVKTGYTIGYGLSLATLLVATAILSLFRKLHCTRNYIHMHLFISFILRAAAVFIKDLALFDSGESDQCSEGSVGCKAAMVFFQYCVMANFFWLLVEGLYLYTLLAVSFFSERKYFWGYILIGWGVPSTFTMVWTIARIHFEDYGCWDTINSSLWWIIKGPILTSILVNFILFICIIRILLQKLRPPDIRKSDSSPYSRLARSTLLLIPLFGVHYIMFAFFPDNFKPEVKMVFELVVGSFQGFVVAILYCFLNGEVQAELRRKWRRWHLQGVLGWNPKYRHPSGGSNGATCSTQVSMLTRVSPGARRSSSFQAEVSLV
Sequence of UniProt P23576 (whole entry, looked up): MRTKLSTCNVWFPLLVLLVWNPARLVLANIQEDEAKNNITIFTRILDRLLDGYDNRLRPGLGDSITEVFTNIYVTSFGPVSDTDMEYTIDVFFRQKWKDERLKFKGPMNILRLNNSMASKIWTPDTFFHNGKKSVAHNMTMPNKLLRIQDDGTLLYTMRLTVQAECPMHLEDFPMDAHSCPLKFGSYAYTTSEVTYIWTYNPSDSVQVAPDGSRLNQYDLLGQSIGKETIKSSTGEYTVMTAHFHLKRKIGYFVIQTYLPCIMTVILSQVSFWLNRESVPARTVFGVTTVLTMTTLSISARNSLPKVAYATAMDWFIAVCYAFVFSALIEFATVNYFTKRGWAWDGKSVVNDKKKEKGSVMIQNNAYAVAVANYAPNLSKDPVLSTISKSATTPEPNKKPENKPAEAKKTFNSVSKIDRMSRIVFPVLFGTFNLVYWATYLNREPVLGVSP
Sequence of UniProt Q03111 (whole entry, looked up): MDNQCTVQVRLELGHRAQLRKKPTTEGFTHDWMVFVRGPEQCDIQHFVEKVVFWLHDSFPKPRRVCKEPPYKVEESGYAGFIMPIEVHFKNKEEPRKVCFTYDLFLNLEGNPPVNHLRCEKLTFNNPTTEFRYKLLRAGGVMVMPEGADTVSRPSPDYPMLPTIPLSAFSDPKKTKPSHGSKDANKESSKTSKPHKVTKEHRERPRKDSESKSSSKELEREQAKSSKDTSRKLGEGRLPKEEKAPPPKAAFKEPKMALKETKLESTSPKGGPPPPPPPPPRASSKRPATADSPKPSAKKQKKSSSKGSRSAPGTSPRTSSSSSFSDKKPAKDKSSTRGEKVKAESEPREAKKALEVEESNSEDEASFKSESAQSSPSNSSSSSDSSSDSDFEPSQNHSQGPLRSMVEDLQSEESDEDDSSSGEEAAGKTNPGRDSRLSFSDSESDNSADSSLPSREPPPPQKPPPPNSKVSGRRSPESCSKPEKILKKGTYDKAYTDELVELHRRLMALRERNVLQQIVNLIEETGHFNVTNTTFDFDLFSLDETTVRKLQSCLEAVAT
Sequence of UniProt Q6DWJ6 (whole entry, looked up): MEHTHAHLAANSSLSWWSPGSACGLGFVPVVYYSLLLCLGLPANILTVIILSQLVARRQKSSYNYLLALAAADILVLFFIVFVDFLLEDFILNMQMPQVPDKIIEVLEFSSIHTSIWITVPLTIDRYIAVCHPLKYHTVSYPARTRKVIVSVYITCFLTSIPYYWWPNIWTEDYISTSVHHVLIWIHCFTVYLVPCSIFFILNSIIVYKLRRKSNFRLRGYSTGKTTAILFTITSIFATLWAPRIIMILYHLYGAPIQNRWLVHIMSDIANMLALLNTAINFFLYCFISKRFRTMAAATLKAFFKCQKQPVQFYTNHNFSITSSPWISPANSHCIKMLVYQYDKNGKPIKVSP
Sequence of UniProt Q60755 (whole entry, looked up): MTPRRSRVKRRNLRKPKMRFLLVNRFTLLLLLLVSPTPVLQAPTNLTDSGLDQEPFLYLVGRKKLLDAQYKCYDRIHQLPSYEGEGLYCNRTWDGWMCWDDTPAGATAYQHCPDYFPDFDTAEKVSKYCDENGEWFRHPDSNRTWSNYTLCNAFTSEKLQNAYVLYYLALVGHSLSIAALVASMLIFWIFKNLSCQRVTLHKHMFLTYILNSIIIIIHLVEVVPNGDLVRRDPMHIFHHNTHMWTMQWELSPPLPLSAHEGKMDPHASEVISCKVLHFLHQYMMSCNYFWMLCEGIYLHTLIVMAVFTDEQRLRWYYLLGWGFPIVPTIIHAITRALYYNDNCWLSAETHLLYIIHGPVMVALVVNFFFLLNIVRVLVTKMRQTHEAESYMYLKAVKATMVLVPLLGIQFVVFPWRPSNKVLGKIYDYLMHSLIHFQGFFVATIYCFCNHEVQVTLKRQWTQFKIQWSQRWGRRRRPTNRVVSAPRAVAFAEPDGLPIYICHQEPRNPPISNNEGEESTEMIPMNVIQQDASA
Sequence of UniProt P02699 (whole entry, looked up): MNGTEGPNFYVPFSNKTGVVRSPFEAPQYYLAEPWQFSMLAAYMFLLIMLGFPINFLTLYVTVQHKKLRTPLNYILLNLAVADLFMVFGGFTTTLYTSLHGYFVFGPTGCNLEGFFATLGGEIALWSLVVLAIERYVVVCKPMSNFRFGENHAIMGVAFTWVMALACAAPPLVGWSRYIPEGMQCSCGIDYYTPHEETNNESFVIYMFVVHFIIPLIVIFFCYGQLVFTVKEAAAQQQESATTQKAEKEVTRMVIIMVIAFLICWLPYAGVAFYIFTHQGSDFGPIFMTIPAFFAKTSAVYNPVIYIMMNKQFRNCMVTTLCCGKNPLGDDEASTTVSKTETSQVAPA
Sequence of UniProt O95838 (whole entry, looked up): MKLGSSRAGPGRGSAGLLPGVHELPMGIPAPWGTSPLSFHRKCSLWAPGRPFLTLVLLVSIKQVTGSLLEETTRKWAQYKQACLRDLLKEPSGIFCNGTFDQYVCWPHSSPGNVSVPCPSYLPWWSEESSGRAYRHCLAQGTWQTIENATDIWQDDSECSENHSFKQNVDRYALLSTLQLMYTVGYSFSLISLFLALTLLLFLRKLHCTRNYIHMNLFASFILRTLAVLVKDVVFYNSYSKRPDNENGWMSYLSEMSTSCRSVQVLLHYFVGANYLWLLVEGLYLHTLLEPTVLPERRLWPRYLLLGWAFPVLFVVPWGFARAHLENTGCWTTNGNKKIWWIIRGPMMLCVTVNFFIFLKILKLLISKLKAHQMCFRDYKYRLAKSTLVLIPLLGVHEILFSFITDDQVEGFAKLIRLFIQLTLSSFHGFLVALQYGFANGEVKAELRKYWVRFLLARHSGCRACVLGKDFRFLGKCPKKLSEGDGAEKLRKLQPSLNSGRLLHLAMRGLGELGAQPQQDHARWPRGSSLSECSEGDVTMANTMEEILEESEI
Sequence of UniProt P63138 (whole entry, looked up): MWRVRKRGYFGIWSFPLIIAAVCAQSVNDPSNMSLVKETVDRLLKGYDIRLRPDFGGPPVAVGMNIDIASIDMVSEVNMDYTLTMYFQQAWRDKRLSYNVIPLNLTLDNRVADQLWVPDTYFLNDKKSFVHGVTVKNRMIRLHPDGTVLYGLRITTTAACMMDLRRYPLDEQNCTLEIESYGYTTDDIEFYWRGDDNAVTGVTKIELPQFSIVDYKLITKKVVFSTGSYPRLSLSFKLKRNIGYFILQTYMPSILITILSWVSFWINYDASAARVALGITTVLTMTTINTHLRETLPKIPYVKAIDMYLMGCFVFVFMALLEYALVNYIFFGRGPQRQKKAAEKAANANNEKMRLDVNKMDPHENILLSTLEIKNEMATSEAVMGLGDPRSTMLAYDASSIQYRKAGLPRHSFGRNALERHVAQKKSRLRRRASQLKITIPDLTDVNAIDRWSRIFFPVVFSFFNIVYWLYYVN

`CC1=C(/C=C/C(C)=C\C=C\C(C)=C\C=O)C(C)(C)CCC1` has an EC50 of 0.124 µM (Rhodopsin (RHO, Bos taurus, UniProt P02699); binding, fluorescence; cell membranes).
For `CC(C)C[C@H](NC(=O)CNC(=O)[C@H](CCC(N)=O)NC(=O)[C@H](CC(C)C)NC(=O)[C@H](CC(C)C)NC(=O)[C@H](CCCNC(=N)N)NC(=O)[C@H](CCC(N)=O)NC(=O)[C@H](CC(C)C)NC(=O)[C@H](CCCNC(=N)N)NC(=O)[C@H](C)NC(=O)[C@H](CO)NC(=O)[C@H](CC(=O)O)NC(=O)[C@H](CCC(N)=O)NC(=O)[C@H](CC(C)C)NC(=O)[C@H](CCCNC(=N)N)NC(=O)[C@H](CO)NC(=O)[C@H](CC(C)C)NC(=O)[C@H](CCC(=O)O)NC(=O)[C@H](CO)NC(=O)[C@@H](NC(=O)[C@H](Cc1ccccc1)NC(=O)[C@@H](NC(=O)CNC(=O)[C@H](C)NC(=O)[C@H](CO)NC(=O)[C@@H](N)Cc1c[nH]cn1)[C@@H](C)O)[C@@H](C)O)C(=O)N[C@H](C(N)=O)C(C)C`, the EC50 was 0.0039 ± 0.0006 µM (Sctr; cAMP production, agonist; CHO-SecR; 30 min, 37 °C, added: 1 mM IBMX).
For `CSCC[C@H](NC(=O)[C@H](CO)NC(=O)[C@H](Cc1ccc(O)cc1)NC(=O)[C@@H](N)CO)C(=O)N[C@@H](CCC(=O)O)C(=O)N[C@@H](Cc1c[nH]cn1)C(=O)N[C@@H](Cc1ccccc1)C(=O)N[C@@H](CCCNC(=N)N)C(=O)N[C@@H](Cc1c[nH]c2ccccc12)C(=O)NCC(=O)O`, the EC50 was 0.339 µM (GPR139 (Homo sapiens, UniProt Q6DWJ6); calcium mobilisation, agonist, Fluo-4; CHO transfected; from mean pEC50).
For `CC(C)C[C@H](NC(=O)CNC(=O)[C@H](CCC(N)=O)NC(=O)[C@H](CC(C)C)NC(=O)[C@H](CC(C)C)NC(=O)[C@H](CCCNC(=N)N)NC(=O)[C@H](CCC(N)=O)NC(=O)[C@H](CC(C)C)NC(=O)[C@H](CCCNC(=N)N)NC(=O)[C@H](C)NC(=O)[C@H](CO)NC(=O)[C@H](CC(=O)O)NC(=O)[C@H](CCC(N)=O)NC(=O)[C@H](CC(C)C)NC(=O)[C@H](CCCNC(=N)N)NC(=O)[C@H](CO)NC(=O)[C@H](CC(C)C)NC(=O)[C@H](CCC(=O)O)NC(=O)[C@H](CO)NC(=O)[C@H](C)NC(=O)[C@H](Cc1ccccc1)NC(=O)[C@@H](NC(=O)CNC(=O)[C@H](CC(=O)O)NC(=O)[C@H](CO)NC(=O)[C@@H](N)Cc1c[nH]cn1)[C@@H](C)O)C(=O)N[C@H](C(N)=O)C(C)C`, the EC50 was 0.009 ± 0.0015 µM (Sctr; cAMP production, agonist; CHO-SecR; 30 min, 37 °C, added: 1 mM IBMX).
With `O=C(NC1CCC1)c1ccc2nc(-c3ccccc3)cn2c1` the EC50 was 3 µM (Protein ENL, YEATS domain (MLLT1, Homo sapiens, UniProt Q03111); cell-based).
`O=C(O)/C=C/c1cccc(NC(=O)c2cc(-c3cccc(F)c3)ccc2F)c1` has an EC50 of 0.00631 µM (PTGER2 (Homo sapiens, UniProt P43116); calcium signal, agonist, fluorescence).
`C/C=C/CC(=O)O` gave an EC50 of 110 µM (FFAR2; agonist).
For `CC[C@H](C)[C@H](NC(=O)CNC(=O)C1CCN(C(=O)[C@H](CO)NC(=O)[C@@H](N)Cc2c[nH]cn2)CC1)C(=O)N[C@@H](Cc1ccccc1)C(=O)N[C@H](C(=O)N[C@@H](CC(=O)O)C(=O)N[C@@H](CO)C(=O)N[C@@H](Cc1ccc(O)cc1)C(=O)N[C@@H](CO)C(=O)N[C@@H](CCCNC(=N)N)C(=O)N[C@@H](Cc1ccc(O)cc1)C(=O)N[C@@H](CCCNC(=N)N)C(=O)N[C@@H](CCCCN)C(=O)NC(C)(C)C(=O)N[C@@H](C)C(=O)N[C@@H](C)C(=O)N[C@H](C(=O)N[C@@H](CCCCN)C(=O)N[C@@H](CCCCN)C(=O)N[C@@H](Cc1ccc(O)cc1)C(=O)N[C@@H](CC(C)C)C(=O)N[C@@H](C)C(=O)N[C@@H](C)C(=O)N[C@H](C(=O)N[C@@H](CC(C)C)C(=O)NC(C)(C)C(=O)N[C@@H](CCCCN)C(=O)N[C@@H](CCCNC(=N)N)C(=O)N[C@@H](Cc1ccc(O)cc1)C(=O)N[C@@H](CCCCN)C(=O)N[C@@H](CCC(N)=O)C(=O)N[C@@H](CCCCN)C(=O)N[C@H](C(=O)N[C@@H](CCCCN)C(=O)N[C@@H](CC(N)=O)C(=O)N[C@H](CCCCN)C(N)=O)C(C)C)C(C)C)C(C)C)[C@@H](C)O`, the EC50 was over 1 µM (VIPR1 (Homo sapiens, UniProt P32241); cAMP, agonist, radiometric).
The EC50 of `CC(C)C[C@H](NC(=O)CNC(=O)[C@H](C)NC(=O)[C@H](CC(C)C)NC(=O)[C@H](CC(C)C)NC(=O)[C@H](CCCNC(=N)N)NC(=O)[C@H](CCC(N)=O)NC(=O)[C@H](CC(C)C)NC(=O)[C@H](CCCNC(=N)N)NC(=O)[C@H](C)NC(=O)[C@H](CO)NC(=O)[C@H](CC(=O)O)NC(=O)[C@H](CCC(N)=O)NC(=O)[C@H](CC(C)C)NC(=O)[C@H](CCCNC(=N)N)NC(=O)[C@H](CO)NC(=O)[C@H](CC(C)C)NC(=O)[C@H](CCC(=O)O)NC(=O)[C@H](CO)NC(=O)[C@@H](NC(=O)[C@H](Cc1ccccc1)NC(=O)[C@@H](NC(=O)CNC(=O)[C@H](CC(=O)O)NC(=O)[C@H](CO)NC(=O)[C@@H](N)Cc1c[nH]cn1)[C@@H](C)O)[C@@H](C)O)C(=O)N[C@H](C(N)=O)C(C)C` is reported as 0.0002 ± 5e-05 µM (Sctr; cAMP production, agonist; CHO-SecR; 30 min, 37 °C, added: 1 mM IBMX).
For `CSCC[C@H](NC(=O)[C@H](CC(C)C)NC(=O)[C@H](Cc1cnc[nH]1)NC(=O)CNC(=O)[C@@H](NC(=O)[C@H](C)NC(=O)[C@H](Cc1c[nH]c2ccccc12)NC(=O)[C@H](Cc1cnc[nH]1)NC(=O)[C@H](CC(N)=O)NC(=O)CN)C(C)C)C(N)=O`, the EC50 was 0.0049 ± 0.0001 µM (GRPR; inositol phosphate generation, agonist; BALB/3T3 transfected with human GRPR; 45 min, 37 °C; baseline: 1 µM GRP).
With `Nc1ncnc2c1ncn2[C@@H]1O[C@H](CO)[C@@H](O[C@H]2O[C@H](CO)[C@@H](OP(=O)(O)O)[C@H](OP(=O)(O)O)[C@H]2O)[C@H]1O` the EC50 was 0.16 µM (Itpr1 (Rattus norvegicus, UniProt P29994); calcium release, agonist; DT40 (permeabilised, IP3R1 wild type)).
`CC(C)C[C@H](NC(=O)CNC(=O)[C@H](CCC(N)=O)NC(=O)[C@H](CC(C)C)NC(=O)[C@H](CC(C)C)NC(=O)[C@H](CCCNC(=N)N)NC(=O)[C@H](CCC(N)=O)NC(=O)[C@H](CC(C)C)NC(=O)[C@H](CCCNC(=N)N)NC(=O)[C@H](C)NC(=O)[C@H](CO)NC(=O)[C@H](CC(=O)O)NC(=O)[C@H](CCC(N)=O)NC(=O)[C@H](CC(C)C)NC(=O)[C@H](CCCNC(=N)N)NC(=O)[C@H](CO)NC(=O)[C@H](CC(C)C)NC(=O)[C@H](CCC(=O)O)NC(=O)[C@H](CO)NC(=O)[C@@H](NC(=O)[C@H](C)NC(=O)[C@@H](NC(=O)CNC(=O)[C@H](CC(=O)O)NC(=O)[C@H](CO)NC(=O)[C@@H](N)Cc1c[nH]cn1)[C@@H](C)O)[C@@H](C)O)C(=O)N[C@H](C(N)=O)C(C)C` has an EC50 of 0.0046 ± 0.0005 µM (Sctr; cAMP production, agonist; CHO-SecR; 30 min, 37 °C, added: 1 mM IBMX).
`CC(C)CN(CC(C)C)C(=O)/C=C/C=C/c1ccc2c(c1)OCO2` gave an EC50 of 13.1 ± 9 µM (Gabra2/Gabrb2 (Rattus norvegicus, UniProt P23576+P63138); GABA current potentiation, positive modulator, two-electrode voltage clamp; Xenopus oocytes expressing α2β2; added: GABA EC3-7).
For `CC[C@H](C)[C@H](NC(=O)[C@H](Cc1ccccc1)NC(=O)[C@H](CC(=O)O)NC(=O)[C@H](CCCNC(=N)N)NC(=O)[C@H](C)NC(=O)[C@H](C)NC(=O)[C@H](CC(C)C)NC(=O)[C@H](CC(N)=O)NC(=O)[C@H](CC(=O)O)NC(=O)[C@H](CC(C)C)NC(=O)[C@@H](NC(=O)[C@@H](NC(=O)[C@H](CC(N)=O)NC(=O)[C@H](CCSC)NC(=O)[C@H](CCC(=O)O)NC(=O)[C@H](CC(=O)O)NC(=O)[C@H](CO)NC(=O)[C@H](Cc1ccccc1)NC(=O)[C@H](CO)NC(=O)[C@@H]1CCC[C@H]1NC(=O)[C@H](CC(=O)O)NC(=O)[C@H](C)NC(=O)[C@@H](N)Cc1c[nH]cn1)[C@@H](C)O)[C@@H](C)CC)C(=O)N[C@@H](CC(N)=O)C(=O)N[C@@H](Cc1c[nH]c2ccccc12)C(=O)N[C@@H](CC(C)C)C(=O)N[C@H](C(=O)N[C@@H](CCC(N)=O)C(=O)N[C@H](C(=O)N[C@@H](CCCCN)C(=O)N[C@H](C(=O)N[C@H](C(=O)N[C@@H](CC(=O)O)C(N)=O)[C@@H](C)O)[C@@H](C)CC)[C@@H](C)O)[C@@H](C)CC`, the EC50 was 0.0075 µM (GLP2R (Homo sapiens, UniProt O95838); agonist).
`Fc1ccc(CN2CCC[C@@H](c3nc(-c4ccc(F)c5cn[nH]c45)no3)C2)cn1` gave an EC50 of 0.0961 µM (CNR2 (Homo sapiens, UniProt P34972); cAMP, agonist, luciferase).
The EC50 of `CCCC[C@H](NC(=O)[C@H](Cc1ccccc1)NC(=O)[C@H](Cc1c[nH]cn1)NC(=O)CCNC(=O)[C@@H](NC(=O)[C@H](C)NC(=O)[C@H](Cc1c[nH]c2ccccc12)NC(=O)[C@H](CCC(N)=O)NC(=O)[C@H](N)Cc1ccccc1)C(C)C)C(N)=O` is reported as 0.00058 ± 2e-05 µM (GRPR; inositol phosphate formation, agonist; BALB/3T3 transfected with human GRPR; 45 min, 37 °C; baseline: 1 µM GRP).
With `CC[C@H](C)[C@H](NC(=O)[C@@H]1CCCN1C(=O)CNC(=O)[C@H](Cc1ccccc1)NC(=O)[C@H](CC(N)=O)NC(=O)[C@H](CC(N)=O)NC(=O)[C@H](CO)NC(=O)[C@H](CO)NC(=O)[C@H](Cc1c[nH]cn1)NC(=O)[C@@H](NC(=O)[C@H](CC(C)C)NC(=O)[C@H](Cc1ccccc1)NC(=O)[C@H](CC(N)=O)NC(=O)[C@H](C)NC(=O)[C@H](CC(C)C)NC(=O)[C@H](CCCNC(=N)N)NC(=O)[C@H](CCC(N)=O)NC(=O)[C@@H](NC(=O)[C@H](C)NC(=O)[C@@H]1CSSC[C@H](NC(=O)[C@@H](N)CCCCN)C(=O)N[C@@H](CC(N)=O)C(=O)N[C@@H]([C@@H](C)O)C(=O)N[C@@H](C)C(=O)N[C@@H]([C@@H](C)O)C(=O)N1)[C@@H](C)O)C(C)C)C(=O)N[C@@H](CC(C)C)C(=O)N1CCC[C@H]1C(=O)N1CCC[C@H]1C(=O)N[C@H](C(=O)N[C@@H](CC(N)=O)C(=O)N[C@H](C(=O)NCC(=O)N[C@@H](CO)C(=O)N[C@@H](CC(N)=O)C(=O)N[C@H](C(=O)N[C@@H](Cc1ccc(O)cc1)C(N)=O)[C@@H](C)O)C(C)C)[C@@H](C)O` the EC50 was 0.00776 µM (Calcitonin receptor (Calcr, Mus musculus, UniProt Q60755); cAMP production, agonist; COS-7 transfected with mouse CTR; 15 min, 37 °C, added: 1 mM IBMX).
`CC(C)C[C@H](NC(=O)[C@H](CC(C)C)NC(=O)[C@H](Cc1c[nH]cn1)NC(=O)[C@@H](C)NC(=O)[C@@H](NC(=O)[C@H](C)NC(=O)[C@H](Cc1c[nH]c2ccccc12)NC(=O)[C@H](CCC(N)=O)NC(=O)[C@H](N)Cc1ccccc1)C(C)C)C(N)=O` gave an EC50 of 0.00154 µM (GRPR; inositol phosphate, agonist).
For `CC1(C(=O)O)CC1`, the EC50 was 2400 µM (FFAR2; agonist).

A few entries again:
`CC(C)C[C@H](NC(=O)CNC(=O)[C@H](CCC(N)=O)NC(=O)[C@H](CC(C)C)NC(=O)[C@H](CC(C)C)NC(=O)[C@H](CCCNC(=N)N)NC(=O)[C@H](CCC(N)=O)NC(=O)[C@H](CC(C)C)NC(=O)[C@H](CCCNC(=N)N)NC(=O)[C@H](C)NC(=O)[C@H](CO)NC(=O)[C@H](CC(=O)O)NC(=O)[C@H](CCC(N)=O)NC(=O)[C@H](CC(C)C)NC(=O)[C@H](CCCNC(=N)N)NC(=O)[C@H](CO)NC(=O)[C@H](CC(C)C)NC(=O)[C@H](CCC(=O)O)NC(=O)[C@H](CO)NC(=O)[C@@H](NC(=O)[C@H](C)NC(=O)[C@@H](NC(=O)CNC(=O)[C@H](CC(=O)O)NC(=O)[C@H](CO)NC(=O)[C@@H](N)Cc1c[nH]cn1)[C@@H](C)O)[C@@H](C)O)C(=O)N[C@H](C(N)=O)C(C)C` has an EC50 of 0.0046 ± 0.0005 µM (Sctr; cAMP production, agonist; CHO-SecR; 30 min, 37 °C, added: 1 mM IBMX).
`CC(C)CN(CC(C)C)C(=O)/C=C/C=C/c1ccc2c(c1)OCO2` gave an EC50 of 13.1 ± 9 µM (Gabra2/Gabrb2 (Rattus norvegicus, UniProt P23576+P63138); GABA current potentiation, positive modulator, two-electrode voltage clamp; Xenopus oocytes expressing α2β2; added: GABA EC3-7).
